# Assay results of several laboratories.
# Parts stem from different laboratories: compare values within a part only.

# Set 1
# Target: Histone acetyltransferase KAT6A, both winged helices, GST fusion (KAT6A, Homo sapiens, UniProt Q92794, residues 1-181)
# Technique: protein binding microarray
# Molecule type: double-stranded DNA, one strand shown
# Medium: in vitro
# Tested at: not given
# Notes: 8-mer, flanks averaged, mean of 2 arrays, mostly near background
# Reference: not given
# Direction: higher = stronger binding
# Residues (chain): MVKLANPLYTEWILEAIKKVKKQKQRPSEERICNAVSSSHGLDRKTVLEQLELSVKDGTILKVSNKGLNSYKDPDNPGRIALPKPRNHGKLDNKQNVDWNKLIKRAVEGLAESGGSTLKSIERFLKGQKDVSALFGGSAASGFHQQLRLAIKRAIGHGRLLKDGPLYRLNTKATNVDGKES
Sequence,E-score
TAGTTTCA,-0.143
CCTCCCCG,0.159
CCCGAGCG,0.269
CCCCCCAA,-0.157
CATACTAC,-0.0416
AGCTGAAG,-0.106
CAGCACAC,-0.119
ATACAGAC,-0.114
GCCTCGCC,0.0234
CGAGATTC,0.007
CCCGTTGC,0.23
AAATACAA,-0.00799
AGCTAGAA,-0.172
AAACCTAA,-0.0233
AGGTTAGA,-0.207
ACATTTTC,-0.0197
GCCCAAAA,-0.147
AACCTACT,-0.0991
CCATGGCA,-0.0912
AAACAGCG,0.0969
CACTCACG,0.0842
AATGCGAT,0.0274
CTGACTGC,-0.0131

# Set 2
# Target: Sal-like protein 4, full length isoform A (SALL4, Homo sapiens, UniProt Q9UJQ4, residues 1-1053)
# UniProt Q9UJQ4, sequence (whole entry, looked up): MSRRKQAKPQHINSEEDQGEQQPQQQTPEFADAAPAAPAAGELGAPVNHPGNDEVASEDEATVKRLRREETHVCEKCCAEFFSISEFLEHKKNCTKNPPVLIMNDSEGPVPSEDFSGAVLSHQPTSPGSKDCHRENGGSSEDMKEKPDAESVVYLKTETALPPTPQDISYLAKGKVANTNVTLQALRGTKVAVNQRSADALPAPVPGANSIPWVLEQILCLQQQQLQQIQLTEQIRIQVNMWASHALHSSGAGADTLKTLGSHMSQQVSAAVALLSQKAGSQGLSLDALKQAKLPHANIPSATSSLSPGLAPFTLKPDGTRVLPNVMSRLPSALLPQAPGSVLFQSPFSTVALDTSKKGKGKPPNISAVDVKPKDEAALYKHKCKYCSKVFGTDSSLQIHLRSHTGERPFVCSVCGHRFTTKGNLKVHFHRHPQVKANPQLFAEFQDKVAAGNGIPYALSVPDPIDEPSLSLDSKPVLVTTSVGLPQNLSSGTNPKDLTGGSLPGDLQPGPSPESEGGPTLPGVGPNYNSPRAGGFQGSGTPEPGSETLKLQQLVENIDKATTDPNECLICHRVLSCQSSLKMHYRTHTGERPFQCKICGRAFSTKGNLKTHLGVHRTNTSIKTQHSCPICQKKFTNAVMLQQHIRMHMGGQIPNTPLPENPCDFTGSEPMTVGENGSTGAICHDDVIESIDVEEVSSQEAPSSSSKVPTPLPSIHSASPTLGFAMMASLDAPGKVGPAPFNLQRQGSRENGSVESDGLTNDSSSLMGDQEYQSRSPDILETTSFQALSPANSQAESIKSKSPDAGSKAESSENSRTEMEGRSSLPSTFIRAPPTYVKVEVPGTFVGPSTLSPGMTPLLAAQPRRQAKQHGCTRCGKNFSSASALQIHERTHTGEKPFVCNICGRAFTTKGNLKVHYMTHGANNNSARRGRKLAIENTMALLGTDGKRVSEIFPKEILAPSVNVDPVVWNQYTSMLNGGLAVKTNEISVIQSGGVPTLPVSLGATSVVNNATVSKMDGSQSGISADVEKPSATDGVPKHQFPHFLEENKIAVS
# Technique: universal PBM
# Molecule type: double-stranded DNA, one strand shown
# Medium: in vitro
# Tested at: 600 nM
# Notes: 8-mer, flanks averaged, mean of replicates
# Direction: higher = stronger binding
Sequence,E-score
GTTCTCTA,0.0478
ACCAGCAG,-0.219
ACTATGAT,0.199
AATAAGTA,0.348
CCATCAGG,-0.31
ACCACAAG,-0.0297
AAGAGTCG,-0.0257
CAGGACGA,-0.228
ACAGTATG,0.115
ATCTCTGC,0.0276
CTTCTGGA,-0.136
CGCTGTGA,-0.203
TGCAAACA,0.152
ACCGAGTC,-0.177
TCTGCGAA,-0.0253
CCACCAGA,-0.222

# Set 3
# Target: Interferon regulatory factor 5, full length, phosphomimetic (IRF5, Homo sapiens, UniProt Q13568-2, residues 1-514, S451D/S453D/S456D/S462D)
# Technique: protein-binding microarray
# Molecule type: double-stranded DNA, one strand shown
# Medium: in vitro
# Tested at: 940 nM top
# Notes: 60-bp whole probe
# Added: salmon DNA 0.4 mg/ml
# Reference: random background probes
# Direction: higher = stronger binding
# Shared flanks, not repeated: GCCTAGCAC … GTCTTGATTCGCTTGACGCTGCTG
Sequence,fitted relative affinity
GACGGACTGGTGACTGGGGACGTGCTA,-0.539 z-score
TCACCTCTCTCTTTCCAACTGTGCTAG,1.88 z-score
CTAGGACTGGGTTTCGGTTAGTGCTAG,7.44 z-score
AATGCCCTCGGTTTACAGGGGTGCTAG,-0.015 z-score
CAAACACTGGTTTTTACTTTGTGCTAG,-0.0916 z-score
GACGGTTTCGGGTATCGGGAAGTGCTA,9.52 z-score
TTAGGACTTGGGTATCGGTTAGTGCTA,3.12 z-score
TGAGCATACCATATCAGAAAGTGCTAG,-0.0464 z-score
GACGGACTGTTTATCCTGACGTGCTAG,-0.264 z-score
GACGAAATGAGTTTCGAGACGTGCTAG,4.26 z-score
AACGGACTGGGACTGGGGACGTGCTAG,-0.587 z-score
TTAGGACTGGGTATCGGTTAGTGCTAG,3.31 z-score
TTAGATCTCAGACAGGATTAGTGCTAG,-0.178 z-score
GACGGTTTCGGTTCCGGGCCGTGCTAG,13.5 z-score
GACGGTCTCCGACTGCTGACGTGCTAG,-0.611 z-score
AGGGGACTGACTCTTCAGCACGTGCTA,0.186 z-score
GGGCCCATCATTCCGACCCTGTGCTAG,0.00308 z-score
TCAACTCTCTGCTTGTGACTGTGCTAG,1.01 z-score
GACTATCTCAGTCTCGAGACGTGCTAG,1.39 z-score

# Set 4
# Target: Prothrombin, mature alpha-thrombin (F2, Homo sapiens, UniProt P00734)
# Technique: aptamer microarray, sandwich
# Molecule type: DNA with 2'F-ANA
# Medium: in vitro
# Tested at: 200 nM
# Notes: whole 15-mer aptamer, many near background
# Added: Cy3 exosite-II aptamer, 400 nM
# Direction: higher = stronger binding
# Sequence: GGTTGGTGTGGTTGG
Modification,mean fluorescence intensity
2'F-ANA at 1 6 8 13 14,87.5 a.u.
2'F-ANA at 2 4 6 8 9 10 11,69.8 a.u.
2'F-ANA at 4 7 8 9 10 11 12,129 a.u.
2'F-ANA at 2 7 8 9 11 12 14,172 a.u.
2'F-ANA at 1 2 4 5 8 10 11 12 13,48.3 a.u.
2'F-ANA at 2 4 5 6 7 9 10 11 14,44.4 a.u.
2'F-ANA at 2 4 6 9 11 12 13 14,79.7 a.u.
2'F-ANA at 1 3 5 6 7 9 10 11 14,50 a.u.
2'F-ANA at 1 3 7 8 10 12 13 14 15,68 a.u.
2'F-ANA at 2 5 6 9 11 12,118 a.u.
2'F-ANA at 1 2 4 6 7 12 14 15,55.9 a.u.
2'F-ANA at 2 5 7 8 9 10 15,63.5 a.u.
2'F-ANA at 2 3 4 5 6 9 10 11 14 15,52.8 a.u.
2'F-ANA at 1 3 4 5 6 8 9 10 11 12 14,47.9 a.u.
2'F-ANA at 3 6 7 8 9 13 14,613 a.u.
2'F-ANA at 3 5 9 10 12 13 14,54.6 a.u.
2'F-ANA at 3 5 11 12 14,65.1 a.u.
2'F-ANA at 1 2 3 5 6 7 10 11 14,46.3 a.u.
2'F-ANA at 5 6 7 9 10 12 13,50 a.u.
2'F-ANA at 1 5 6 7 8 10 11 12 13 14,47.7 a.u.
2'F-ANA at 2 5 6 7 10 12 13 14,47.2 a.u.
2'F-ANA at 5 6 8 9 10 12,50.4 a.u.
2'F-ANA at 1 2 3 6 7 11 14,71 a.u.
2'F-ANA at 1 2 3 4 6 7 10 12 13 15,61.8 a.u.
2'F-ANA at 3 4 8 9 11 12 15,792 a.u.

# Set 5
# Target: RING finger protein unkempt homolog, zinc fingers 1-6, GST-SBP tag (UNK, Homo sapiens, UniProt Q9C0B0, residues 30-357)
# Technique: RNA Bind-n-Seq
# Molecule type: RNA
# Medium: in vitro
# Tested at: not given
# Notes: RNA with constant flanks, human and mouse sites, ends assumed
# Reference: input RNA pool
# Direction: higher = stronger binding
# Shared flanks, not repeated: GGGAGUUCUACAGUCCGACGAUC … CAACAGAGGAUUGAGCAUCA
# Construct (chain): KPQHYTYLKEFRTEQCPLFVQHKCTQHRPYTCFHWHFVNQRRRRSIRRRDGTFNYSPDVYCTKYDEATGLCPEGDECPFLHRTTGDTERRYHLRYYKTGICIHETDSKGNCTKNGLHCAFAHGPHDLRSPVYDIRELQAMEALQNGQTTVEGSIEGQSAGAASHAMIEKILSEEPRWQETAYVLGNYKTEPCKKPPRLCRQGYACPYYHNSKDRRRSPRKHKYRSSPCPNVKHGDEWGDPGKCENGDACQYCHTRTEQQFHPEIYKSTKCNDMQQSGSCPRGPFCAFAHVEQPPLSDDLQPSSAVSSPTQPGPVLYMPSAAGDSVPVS
Sequence,bound/input enrichment
AGGGACACAGUGUGUGUCUGAUUGGGCUUCGCAUCAAAAGCCUGACGUUCCUGUCCCUCUUAUAGGGGGAGCUUUGGACACAGGACCAGUUUGAUAAAGGGCCAGGUAAGGGUUUCCACU,0.0667 ratio
GAAGUCAGAAAGAAAUGUGCUGAGGAGGCCCAACUGAUCUCUUCUCUGAAAGCUGAAUUAACUAGUCAGGAAUCGCAGAUCUCCACUUACGAAGAAGAAUUGGCAAAAGCUAGAGAAGAG,0.298 ratio
UUUCCUGUACCAAGCACCCAGCUCUCCUCUUGUUCUGAAAGGGAUUUCACAUCUUCAGCGUAGCUUCAGUACAUCAUCGGAGGAGUCUGCUGUCCCUAACACAGAGGGAGACCUCGCUUU,0.141 ratio
ACAGAUUUACUGAGAUUAUUUGAAUAUGGAGGUUUCCCACCAGAAGCCAACUAUCUUUUCUUAGGAGAUUAUGUGGACAGAGGAAAGCAGUCUUUGGAAACCAUUUGUUUGCUAUUGGCU,0.608 ratio
CCUUCCCUUUGCCUUUUAAAUUGUGGUUAAAAAAAAAGAAAAAAAAAGGCACAUAAAGCUGAGCACCUUAACCAUUUUUUAAGCGUAUGGUAGUGUUGACUAUAUUUGCAUUGUUGCGCA,0.448 ratio
CCCCGGCAAGCCACAGGAAGGAGGGGAGAGACAGGCAGCCCAGCAGUGUGGAGACCCUGCCACAGCCAGAGGAGGGCAGAGGGAGAAUCCAAGGGUUGAGAGCCAGUGGCGGGUGAUGGC,0.288 ratio
CCUAAGCAGACCUCCUCCUACAACAUCCCUGCCUCUGCCAGCAUCUCUCGGACAUCCAUUAGCAGAUAUGACUCUUCCUUCAGGUACACAGGCAGCCCAGACAGCCUCCGGUCCCGGGUC,1.39 ratio
CCAGGGCAACACAGAGACCCCGAGGAACCCAGGUUCCGGAGAACAAGAUCGUUGGAAUGCCAAGAUGCUCUCGAAACAGCAGCCCGAGUUGAGGGGCUUUCCCUGGAUAUCUCUGUGCAU,0.192 ratio
GCUAUAAAAAUAAUAGACAAGUCACAGCUGGAUGCAGUAAACCUUGAGAAAAUCUACCGAGAAGUACAGAUAAUGAAAAUGCUCGACCAUCCUCACAUCAUUAAACUGUAUCAGGUAAUG,0.387 ratio
UAUGAGACAGUGGUUGGCCCUGGGGAUGUUCUUUACAUCCCAAUGUACUGGUGGCACCAUAUAGAGUCAUUACUAAAUGGGGGAAUUACCAUCACUGUGAACUUCUGGUAUAAGGGGGCU,0.214 ratio
CAGUAUCUGAUGGAUAAUCCAACGUUCGCAGAGGAUGAAGAGUUACAGAACAUGGAUAAAGAAGAUGCAUUAAUAUGCUUUGAGGAACACAUCCGGGCUUUAGAAAAGGAAGAAGAAGAA,0.422 ratio

# For quick reference, copied from above (set 4):
Modification,mean fluorescence intensity
2'F-ANA at 1 6 8 13 14,87.5 a.u.
2'F-ANA at 1 2 4 6 7 12 14 15,55.9 a.u.
2'F-ANA at 5 6 8 9 10 12,50.4 a.u.
2'F-ANA at 2 4 6 9 11 12 13 14,79.7 a.u.
2'F-ANA at 3 5 11 12 14,65.1 a.u.
